Published values from different studies.
Compare with care: the assays were run in different laboratories.
Cell line: MDA-MB-231

For `CCCCCCCC(=O)NCC(=O)N[C@@H](C)C(=O)N[C@@H](CC(C)C)C(=O)N[C@](C)(CC)C(=O)N[C@@H](C)C(=O)N[C@H](C(=O)N[C@H](C=O)CC(C)C)[C@@H](C)CC`, the IC50 was 3 µM (cell growth or viability, MTT).
The IC50 of `CC(C)[C@@H]1NC(=O)[C@H](Cc2ccccc2)NC(=O)[C@H](Cc2ccc(O)cc2)NC(=O)CCSSC[C@@H](C(=O)N2CCC[C@H]2C(=O)N[C@H](CCCNC(=N)N)C(=O)NCC(N)=O)NC(=O)[C@H](CCC(N)=O)NC1=O` is reported as 1.13 µM (colony formation).
`CC(=O)[C@@H]1CCCN1C(=O)[C@@H]1CCCN1C(=O)[C@H](Cc1ccccc1)NC(=O)[C@@H](NC(=O)[C@@H](NC(=O)[C@@H](NC(=O)[C@@H]1CCCN1C(=O)[C@H](C)NC(=O)OC(C)(C)C)C(C)C)C(C)C)C(C)C` has an IC50 of 9 µM (cell growth or viability, SRB).
`COc1cc(C(c2c(C)nn(-c3ccccc3)c2O)c2c(C)nn(-c3ccccc3)c2O)cc(OC)c1OC` has an IC50 of 9.47 µM (cell growth or viability, MTT; 48 h).
`NC1CCCCC1N.O=C1[O][Pt]([O]C(=O)c2ccc(P(c3ccccc3)c3ccccc3)cc2)([O]C(=O)c2ccc(P(c3ccccc3)c3ccccc3)cc2)[O]C1=O.[Cl][Au].[Cl][Au]` has an IC50 of 5.87 µM (cell growth or viability, resazurin; 72 h).
`COC(=O)C1CN1S(=O)(=O)c1ccccc1C` (stereo not drawn) has an IC50 of 380 µM (cell growth or viability, MTT; 48 h).
For `CCc1ccc(C(c2c(C)nn(-c3ccccc3)c2O)c2c(C)nn(-c3ccccc3)c2O)cc1`, the IC50 was 38.5 µM (cell growth or viability, MTT; 48 h).
For `CC12CC(O)C3C(CCC4(O)CC(O)CC(O)C34CO)C1(O)CCC2C1=CC(=O)OC1` (stereo not drawn), the IC50 was 0.79 µM (cell migration, inhibitor).
With `CCCCc1ccc(S(=O)(=O)N2CC2C(=O)OC)cc1` (stereo not drawn) the IC50 was 15 µM (cell growth or viability, MTT; 48 h).
With `C[C@H](NC(=O)[C@H](CCCNC(=N)N)NC(=O)[C@H](CCCNC(=N)N)NC(=O)[C@@H]1CCCN1C(=O)CNC(=O)[C@H](CCCNC(=N)N)NC(=O)[C@H](CCCNC(=N)N)NC(=O)CN)C(=O)N[C@@H](CC(N)=O)C(=O)N[C@@H](CCC(N)=O)C(=O)N[C@@H](CC(N)=O)C(=O)NCC(=O)N[C@H](C(=O)N[C@@H](CCCNC(=N)N)C(=O)N[C@@H](CCCNC(=N)N)C(=O)N[C@@H](CCCNC(=N)N)C(=O)N[C@@H](CCCNC(=N)N)C(=O)N[C@@H](CCCNC(=N)N)C(=O)N[C@@H](CCCNC(=N)N)C(=O)N[C@H](C(N)=O)[C@@H](C)O)[C@@H](C)O` the IC50 was over 100 µM (cell viability, CellTiter-Blue; 24 h, serum-free medium).
The IC50 of `Cc1nn(-c2ccccc2)c(O)c1C(c1ccccc1[N+](=O)[O-])c1c(C)nn(-c2ccccc2)c1O` is reported as 39.4 µM (cell growth or viability, MTT; 48 h).
For `CN(C)C1=[S+][Au-]2([S]1)[c]1ccccc1-c1cccc[c]12`, the IC50 was 4.07 µM (cell growth or viability, MTT; 72 h).

A few entries again:
For `CCCCCCCC(=O)NCC(=O)N[C@@H](C)C(=O)N[C@@H](CC(C)C)C(=O)N[C@](C)(CC)C(=O)N[C@@H](C)C(=O)N[C@H](C(=O)N[C@H](C=O)CC(C)C)[C@@H](C)CC`, the IC50 was 3 µM (cell growth or viability, MTT).
